Published values collected from several papers.
Lines come from different studies, so protocols differ. ± marks the error that the study gave.
CYP2D6: Cytochrome P450 2D6 (CYP2D6, Homo sapiens, UniProt P10635)
UniProt P10635, sequence (whole entry, looked up): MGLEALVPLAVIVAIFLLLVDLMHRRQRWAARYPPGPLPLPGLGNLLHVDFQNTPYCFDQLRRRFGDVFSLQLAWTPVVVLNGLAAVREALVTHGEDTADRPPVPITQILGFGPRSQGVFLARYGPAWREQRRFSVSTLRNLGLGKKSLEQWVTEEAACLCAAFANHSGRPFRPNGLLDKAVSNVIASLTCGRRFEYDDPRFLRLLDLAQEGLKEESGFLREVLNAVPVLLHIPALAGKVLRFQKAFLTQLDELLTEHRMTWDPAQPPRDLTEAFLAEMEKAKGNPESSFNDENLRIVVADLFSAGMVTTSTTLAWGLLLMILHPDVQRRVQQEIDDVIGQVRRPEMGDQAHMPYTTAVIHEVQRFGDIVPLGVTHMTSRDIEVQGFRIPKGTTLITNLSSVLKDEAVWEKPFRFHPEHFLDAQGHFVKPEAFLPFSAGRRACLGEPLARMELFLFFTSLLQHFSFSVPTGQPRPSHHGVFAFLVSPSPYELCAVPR
CYP2B6: Cytochrome P450 2B6 (CYP2B6, Homo sapiens, UniProt P20813)
UniProt P20813, sequence (whole entry, looked up): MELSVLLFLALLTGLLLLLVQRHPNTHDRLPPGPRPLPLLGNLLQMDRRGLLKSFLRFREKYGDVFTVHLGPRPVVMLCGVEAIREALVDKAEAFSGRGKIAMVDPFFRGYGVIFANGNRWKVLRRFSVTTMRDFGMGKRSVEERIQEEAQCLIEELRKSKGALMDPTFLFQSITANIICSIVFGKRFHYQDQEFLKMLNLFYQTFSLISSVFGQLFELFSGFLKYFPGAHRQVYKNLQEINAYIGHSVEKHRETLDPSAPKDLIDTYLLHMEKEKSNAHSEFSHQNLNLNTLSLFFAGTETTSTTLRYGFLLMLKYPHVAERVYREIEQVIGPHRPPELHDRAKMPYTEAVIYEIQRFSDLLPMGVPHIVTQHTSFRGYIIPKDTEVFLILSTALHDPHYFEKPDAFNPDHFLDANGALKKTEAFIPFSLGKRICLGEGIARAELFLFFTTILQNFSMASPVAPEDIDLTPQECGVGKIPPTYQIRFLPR
KCNH2: Voltage-gated inwardly rectifying potassium channel KCNH2 (KCNH2, Homo sapiens, UniProt Q12809)
UniProt Q12809, sequence (whole entry, looked up): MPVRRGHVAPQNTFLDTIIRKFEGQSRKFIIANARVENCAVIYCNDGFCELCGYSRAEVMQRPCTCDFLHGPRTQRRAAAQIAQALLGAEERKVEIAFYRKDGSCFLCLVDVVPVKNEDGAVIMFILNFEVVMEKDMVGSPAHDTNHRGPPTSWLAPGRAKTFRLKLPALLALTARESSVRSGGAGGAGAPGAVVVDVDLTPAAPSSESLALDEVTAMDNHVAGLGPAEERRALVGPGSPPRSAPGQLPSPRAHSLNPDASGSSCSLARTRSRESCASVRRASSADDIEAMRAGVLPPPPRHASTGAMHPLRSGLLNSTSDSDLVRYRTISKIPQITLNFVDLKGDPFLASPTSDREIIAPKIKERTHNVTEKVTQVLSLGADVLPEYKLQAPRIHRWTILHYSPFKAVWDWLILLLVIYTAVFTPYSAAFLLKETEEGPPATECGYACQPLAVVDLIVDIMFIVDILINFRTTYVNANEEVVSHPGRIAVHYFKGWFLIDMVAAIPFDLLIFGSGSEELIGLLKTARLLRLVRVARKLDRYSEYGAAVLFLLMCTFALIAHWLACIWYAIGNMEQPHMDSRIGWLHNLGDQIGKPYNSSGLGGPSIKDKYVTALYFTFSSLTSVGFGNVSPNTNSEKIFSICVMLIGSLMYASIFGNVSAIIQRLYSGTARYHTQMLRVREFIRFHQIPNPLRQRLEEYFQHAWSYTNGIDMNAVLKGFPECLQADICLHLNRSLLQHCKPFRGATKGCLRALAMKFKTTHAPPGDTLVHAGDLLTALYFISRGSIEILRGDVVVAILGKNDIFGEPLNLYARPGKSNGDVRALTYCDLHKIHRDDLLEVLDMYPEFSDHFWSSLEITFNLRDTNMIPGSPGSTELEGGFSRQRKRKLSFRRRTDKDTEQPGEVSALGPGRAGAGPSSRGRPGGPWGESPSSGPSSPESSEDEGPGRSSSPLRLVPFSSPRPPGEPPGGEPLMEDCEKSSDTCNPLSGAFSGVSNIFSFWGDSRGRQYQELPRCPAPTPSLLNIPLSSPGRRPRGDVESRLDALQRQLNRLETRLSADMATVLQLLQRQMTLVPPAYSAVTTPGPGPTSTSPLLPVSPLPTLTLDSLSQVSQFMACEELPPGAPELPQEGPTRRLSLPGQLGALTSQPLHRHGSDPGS
CYP27A1: Sterol 26-hydroxylase, mitochondrial (CYP27A1, Homo sapiens, UniProt Q02318)
UniProt Q02318, sequence (whole entry, looked up): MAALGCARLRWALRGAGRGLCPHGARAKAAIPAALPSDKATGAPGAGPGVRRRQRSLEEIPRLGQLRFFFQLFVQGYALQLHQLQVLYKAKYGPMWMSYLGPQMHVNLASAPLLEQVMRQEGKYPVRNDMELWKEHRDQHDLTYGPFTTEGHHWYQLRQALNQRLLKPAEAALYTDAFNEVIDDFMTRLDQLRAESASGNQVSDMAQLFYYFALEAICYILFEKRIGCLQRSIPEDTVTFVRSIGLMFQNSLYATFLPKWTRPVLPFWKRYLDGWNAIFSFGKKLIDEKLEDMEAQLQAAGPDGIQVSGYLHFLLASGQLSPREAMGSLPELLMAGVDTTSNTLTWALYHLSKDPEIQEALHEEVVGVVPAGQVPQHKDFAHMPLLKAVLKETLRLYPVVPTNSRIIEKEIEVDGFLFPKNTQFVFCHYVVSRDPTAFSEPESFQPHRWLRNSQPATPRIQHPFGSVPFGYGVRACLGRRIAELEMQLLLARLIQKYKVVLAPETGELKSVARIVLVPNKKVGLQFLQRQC
UniProt Q9CPV9, sequence (whole entry, looked up): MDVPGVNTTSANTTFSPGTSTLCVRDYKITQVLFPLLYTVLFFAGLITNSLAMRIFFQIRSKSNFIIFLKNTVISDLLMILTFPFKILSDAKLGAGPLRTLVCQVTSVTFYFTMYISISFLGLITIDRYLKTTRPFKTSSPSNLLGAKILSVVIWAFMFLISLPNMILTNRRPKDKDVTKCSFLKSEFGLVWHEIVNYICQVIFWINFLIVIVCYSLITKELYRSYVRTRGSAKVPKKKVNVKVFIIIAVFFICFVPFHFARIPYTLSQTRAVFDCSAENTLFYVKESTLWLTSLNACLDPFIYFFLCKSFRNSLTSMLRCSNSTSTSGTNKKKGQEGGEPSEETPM
UniProt P08253, sequence (whole entry, looked up): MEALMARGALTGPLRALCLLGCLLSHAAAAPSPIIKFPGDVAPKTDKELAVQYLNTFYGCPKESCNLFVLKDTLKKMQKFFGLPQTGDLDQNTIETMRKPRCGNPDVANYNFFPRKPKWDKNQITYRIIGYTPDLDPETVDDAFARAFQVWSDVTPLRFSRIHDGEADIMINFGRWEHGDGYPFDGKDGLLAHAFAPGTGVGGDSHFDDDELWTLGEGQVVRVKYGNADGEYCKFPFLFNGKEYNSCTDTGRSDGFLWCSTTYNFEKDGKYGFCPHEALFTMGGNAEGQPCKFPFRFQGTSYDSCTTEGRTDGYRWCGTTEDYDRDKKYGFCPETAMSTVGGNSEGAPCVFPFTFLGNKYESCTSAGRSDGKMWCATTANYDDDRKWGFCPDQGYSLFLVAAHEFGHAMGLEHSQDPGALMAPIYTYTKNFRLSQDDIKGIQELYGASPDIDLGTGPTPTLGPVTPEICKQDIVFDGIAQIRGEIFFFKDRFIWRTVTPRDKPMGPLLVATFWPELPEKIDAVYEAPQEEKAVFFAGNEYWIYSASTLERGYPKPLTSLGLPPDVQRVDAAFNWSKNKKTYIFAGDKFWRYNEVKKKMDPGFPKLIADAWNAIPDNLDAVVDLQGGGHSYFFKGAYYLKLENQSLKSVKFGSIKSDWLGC
UniProt P07711, sequence (whole entry, looked up): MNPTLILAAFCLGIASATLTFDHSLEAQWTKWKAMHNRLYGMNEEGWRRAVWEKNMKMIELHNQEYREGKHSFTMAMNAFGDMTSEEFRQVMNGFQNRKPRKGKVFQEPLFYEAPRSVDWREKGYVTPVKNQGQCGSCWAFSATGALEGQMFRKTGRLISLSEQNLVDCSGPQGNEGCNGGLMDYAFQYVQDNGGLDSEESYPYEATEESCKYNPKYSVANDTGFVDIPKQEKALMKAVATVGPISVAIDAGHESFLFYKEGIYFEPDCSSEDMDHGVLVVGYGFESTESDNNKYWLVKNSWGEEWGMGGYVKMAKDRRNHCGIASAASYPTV
UniProt P11980, sequence (whole entry, looked up): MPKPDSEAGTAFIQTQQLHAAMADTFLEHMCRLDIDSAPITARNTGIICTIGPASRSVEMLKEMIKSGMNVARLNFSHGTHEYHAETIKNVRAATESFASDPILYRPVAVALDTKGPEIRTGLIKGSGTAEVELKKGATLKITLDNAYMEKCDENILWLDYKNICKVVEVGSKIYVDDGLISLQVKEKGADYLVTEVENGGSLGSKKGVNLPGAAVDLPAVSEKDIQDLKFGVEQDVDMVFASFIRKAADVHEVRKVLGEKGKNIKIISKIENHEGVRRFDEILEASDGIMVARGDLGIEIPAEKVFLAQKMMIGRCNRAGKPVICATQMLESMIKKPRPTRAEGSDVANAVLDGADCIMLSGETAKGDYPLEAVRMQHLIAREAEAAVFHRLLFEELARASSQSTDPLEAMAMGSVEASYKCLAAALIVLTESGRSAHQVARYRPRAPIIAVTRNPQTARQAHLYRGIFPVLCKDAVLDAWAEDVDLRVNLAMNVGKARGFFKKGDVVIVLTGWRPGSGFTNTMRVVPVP
UniProt P10111, sequence (whole entry, looked up): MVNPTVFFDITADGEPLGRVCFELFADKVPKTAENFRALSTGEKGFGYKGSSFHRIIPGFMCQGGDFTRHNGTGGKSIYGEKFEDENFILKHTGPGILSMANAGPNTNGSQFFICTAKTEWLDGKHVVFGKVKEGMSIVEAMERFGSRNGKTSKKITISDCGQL
UniProt P16257, sequence (whole entry, looked up): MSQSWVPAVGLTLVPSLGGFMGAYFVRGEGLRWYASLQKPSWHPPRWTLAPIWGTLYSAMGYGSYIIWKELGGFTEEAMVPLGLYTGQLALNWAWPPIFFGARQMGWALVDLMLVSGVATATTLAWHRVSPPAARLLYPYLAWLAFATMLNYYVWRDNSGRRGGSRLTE

Compound	target	assay	test system	conditions	scale	measurement	result
[64Cu+2].c1cnc(CNCc2ccc(CN3CCCN4CCNCCCN(CC4)CC3)cc2)nc1	CXCR4 (human)	–	NOD/SCID mice, U87 xenografts, U87 control tumour	450 min post-injection	–	tissue uptake	5.82 ± 1.32 %ID/g
N#Cc1cc(C(=O)OCC[18F])c(C(F)(F)F)nc1N1CCN(C(=O)Cc2ccccc2)CC1	P2Y purinoceptor 12 (P2ry12, Mus musculus, UniProt Q9CPV9)	PET	aged mouse, 60 weeks, brain	11.1 MBq, 60 min	–	SUV	0.45 ± 0.06
O=C(CS(=O)(=O)Cc1ccco1)C12CC3CC(CC(C3)C1)C2	CYP2D6	enzyme activity, inhibitor	–	10 µM	–	inhibition	0%
C=CC(=O)Nc1cc(Nc2nccc(-c3cn(C)c4ccccc34)n2)c(OCC(F)(F)F)nc1N(C)CCN(C)C	CYP2B6	enzyme activity, inhibitor	human, liver microsomes	0.33 µM	–	activity vs control	97.5%
CC[C@H](C)[C@@H]1NC(=O)[C@H](Cc2c[nH]c3ccccc23)NC(=O)[C@H](CCCN)NC(=O)CNC(=O)[C@H]2CCCN2C(=O)[C@H](C(C)C)NC(=O)[C@H](CCCCN)NC(=O)[C@H](C(C)C)NC(=O)[C@@H](NC(=O)[C@H](CCCNC(=N)N)NC(C)=O)CCCCn2cc(nn2)C[C@@H](C(=O)N[C@@H](CCC(N)=O)C(N)=O)NC1=O	Serine protease 1 (PRSS1, Bos taurus, UniProt P00760)	proteolytic degradation, substrate, HPLC	–	0.25 mM, pH 7.6, 37 °C	–	half-life	0.667 h
COc1cc(-c2nc3ccccc3s2)cc(CN(C)Cc2ccccn2)c1O	Cu2+	–	–	50 µM, pH 7.4, 1:1 metal:ligand	–	pCu	7.9
CCC1CC2C(C)=CC3C(=O)CCCC3C=CC(C)=CC2C(=O)O1 (stereo not shown)	CYP2B6	–	human liver microsomes	10 µM, 10 min, pH 7.4, together with: bupropion 3.5 µM	baseline: untreated	remaining activity	114%
[64Cu+2].c1ccc(CNCc2ccc(CN3CCCN4CCNCCCN(CC4)CC3)cc2)nc1	CXCR4	–	NOD/SCID mouse, U87 and U87-stb-CXCR4 xenografts, spleen	iv, 90 min, no blocking dose, ex vivo	–	tissue uptake	11.6 ± 0.86 %ID/g
CCC(=O)N(C)c1ccc(Cl)c(Cl)c1	KCNH2	ion current, inhibitor, patch clamp	HEK293	0.5 µM	–	inhibition	2.11%
CC(=O)N[C@H](C(=O)N[C@H](C(=O)N[C@@H](CCCNC(=N)N)C(=O)N1Cc2ccccc2C[C@H]1C(=O)N[C@@H](Cc1ccccc1)C(N)=O)C1CCCCC1)C(C)C	Procathepsin L (CTSL, Homo sapiens, UniProt P07711)	substrate	isolated enzyme in acetate buffer	1 mg/mL, pH 5.5, 0.01 U enzyme per µmol compound	–	half-life	24 h
C=C1CCC(O)CC1=CC=C1CCCC2(C)C1CCC2C(C)(O)c1ccccc1 (stereo not shown)	CYP27A1	substrate	–	50 µM, 3 h, 0.45% cyclodextrin, 1 µM enzyme	–	number of products	0
C/C=C/C[C@@H](C)[C@@H](O)[C@H]1C(=O)N[C@@H](CC)C(=O)N(C)C(Cc2ccc(C(=O)NCCCCCCNC(=O)c3ccc(-c4c5ccc(=[N+](C)C)cc-5oc5cc(N(C)C)ccc45)cc3)cc2)C(=O)N(C)[C@@H](CC(C)C)C(=O)N[C@@H](C(C)C)C(=O)N(C)[C@@H](CC(C)C)C(=O)N[C@@H](C)C(=O)N[C@H](C)C(=O)N(C)[C@@H](CC(C)C)C(=O)N(C)[C@@H](CC(C)C)C(=O)N(C)[C@@H](C(C)C)C(=O)N1C (stereo partly shown)	Peptidyl-prolyl cis-trans isomerase A (Rattus norvegicus, UniProt P10111)	–	parallel incubation with rat mitochondria	concentration not given, at IC50 for pore opening	–	inhibition	21 ± 6%
CC(C)C[C@H](NC(=O)[C@@H]1CCCN1C(=O)[C@H](CCCNC(=N)N)NC(=O)CNC(=O)[C@H](CCCCNC(=O)CN1CCN(CC(=O)O)CCN(CC(=O)O)CCN(CC(=O)O)CC1)NC(=O)CC[C@@H]1NC(=O)[C@@H](Cc2ccccc2)NC(=O)[C@H](CC(=O)O)NC(=O)CNC(=O)[C@H](CCCNC(=N)N)NC1=O)C(=O)N[C@H](C(=O)N[C@@H](Cc1ccc(O)cc1)C(=O)O)C(C)C [copper-64 labelled]	72 kDa type IV collagenase (MMP2, Homo sapiens, UniProt P08253)	substrate, radio-HPLC	–	pH 7.5, 37 °C, together with: APMA-activated enzyme	–	peptide cleavage	no effect
C=C1CCC(O)CC1=CC=C1CCCC2(C)C1CCC2C(C)(C)O (stereo not shown)	CYP27A1	substrate	–	50 µM, 3 h, 0.45% cyclodextrin, 1 µM enzyme	–	number of products	0
CNC(=O)c1ccc(N2CCN(Cc3ccc4nc(C)c(=O)[nH]c4c3F)CC2)c([18F])n1	Poly [ADP-ribose] polymerase 1 (Macaca mulatta, UniProt H9FQ77)	PET	male rhesus monkeys, pons	intravenous, dose not given, baseline	–	radioactivity uptake	0.67 SUV
COc1cc(-c2nc3ccccc3s2)cc(CN(Cc2ccccn2)Cc2ccccn2)c1O	Cu2+	UV-vis pH titration	–	M2+ + HL = [MHL]+ complex	–	log K	3.99
CCc1nc(N)nc(N)c1C#CC(C)c1cc(-c2ccnc(OC)c2)ccc1OC (racemic)	CYP2D6	enzyme activity, inhibitor, fluorescence	–	–	–	IC50	13.2 µM
COC(=O)CC[C@@H](NC(=O)[C@@H](Cc1ccc(OP(=O)(O)O)cc1)NC(=O)[C@@H](Cc1ccccc1)NC(=O)[C@@H](Cc1ccccc1)NC(=O)Cc1ccc2ccccc2c1)C(=O)OC	carboxylesterase	substrate	HepG2	200 µM, 24 h	–	ester hydrolysis	26%
CCOc1ccc(NS(=O)(=O)c2ccc(C)c(C(=O)N3CCOC(c4ccccc4)C3)c2)cc1 (stereo not shown)	KCNH2	ion current, inhibitor	–	–	–	IC50	> 30 µM
COc1cc2c(CCNC(C)=O)c[nH]c2cc1OS(=O)(=O)O	Abcg2 (mouse)	–	FVB/N Abcg2-/- male mice, small intestinal content	oral, 10 mg/kg melatonin, 1 h	–	concentration	1240 ± 230 ng/g
CCc1cc(C)n2nc(-c3ccc(OCC[18F])cc3)c(CC(=O)N(CC)CC)c2n1	Translocator protein (Tspo, Rattus norvegicus, UniProt P16257)	two-tissue compartment model	rat C6 glioma model, tumor	60 min dynamic PET	–	K1/k2 ratio	3.05 mL/cm3
Cc1cccc(Cn2ncc3c4cc(F)c(CN(C)C)cc4n(C)c3c2=O)n1	Pyruvate kinase PKM (Rattus norvegicus, UniProt P11980)	enzyme activity, activator	rat, retina	intravitreal, 10 µM vitreous concentration	–	half-life of slow phase	1390 h
